Measurements gathered from unrelated publications.
Numbered parts are unrelated; each lists some results of a single study. Values joined by “and” are separate records of one study, mostly repeats; a detail may differ.
Chain of UniProt Q16539 (whole entry, looked up): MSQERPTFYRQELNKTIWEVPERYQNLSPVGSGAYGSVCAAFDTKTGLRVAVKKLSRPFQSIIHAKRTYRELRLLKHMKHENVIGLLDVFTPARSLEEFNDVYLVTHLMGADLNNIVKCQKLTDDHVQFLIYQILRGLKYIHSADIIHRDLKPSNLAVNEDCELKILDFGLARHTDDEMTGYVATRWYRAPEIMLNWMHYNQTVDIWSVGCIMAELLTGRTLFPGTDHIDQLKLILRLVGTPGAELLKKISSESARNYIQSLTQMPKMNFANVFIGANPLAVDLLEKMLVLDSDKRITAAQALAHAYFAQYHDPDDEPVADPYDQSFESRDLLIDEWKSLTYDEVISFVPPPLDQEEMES
Chain of UniProt Q15208 (whole entry, looked up): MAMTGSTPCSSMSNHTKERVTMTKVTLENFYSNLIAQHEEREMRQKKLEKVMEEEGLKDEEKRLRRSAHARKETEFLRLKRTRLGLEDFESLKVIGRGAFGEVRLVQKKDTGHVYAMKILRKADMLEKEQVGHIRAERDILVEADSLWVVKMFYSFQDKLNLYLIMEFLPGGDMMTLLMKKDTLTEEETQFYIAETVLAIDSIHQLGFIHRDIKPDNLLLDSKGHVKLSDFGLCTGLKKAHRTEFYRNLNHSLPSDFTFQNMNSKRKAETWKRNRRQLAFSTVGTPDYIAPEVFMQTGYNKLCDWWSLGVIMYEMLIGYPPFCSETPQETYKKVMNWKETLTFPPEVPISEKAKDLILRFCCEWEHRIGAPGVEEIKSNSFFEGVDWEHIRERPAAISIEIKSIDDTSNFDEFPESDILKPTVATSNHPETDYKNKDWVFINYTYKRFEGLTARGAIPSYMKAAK
Chain of UniProt Q9HAZ1 (whole entry, looked up): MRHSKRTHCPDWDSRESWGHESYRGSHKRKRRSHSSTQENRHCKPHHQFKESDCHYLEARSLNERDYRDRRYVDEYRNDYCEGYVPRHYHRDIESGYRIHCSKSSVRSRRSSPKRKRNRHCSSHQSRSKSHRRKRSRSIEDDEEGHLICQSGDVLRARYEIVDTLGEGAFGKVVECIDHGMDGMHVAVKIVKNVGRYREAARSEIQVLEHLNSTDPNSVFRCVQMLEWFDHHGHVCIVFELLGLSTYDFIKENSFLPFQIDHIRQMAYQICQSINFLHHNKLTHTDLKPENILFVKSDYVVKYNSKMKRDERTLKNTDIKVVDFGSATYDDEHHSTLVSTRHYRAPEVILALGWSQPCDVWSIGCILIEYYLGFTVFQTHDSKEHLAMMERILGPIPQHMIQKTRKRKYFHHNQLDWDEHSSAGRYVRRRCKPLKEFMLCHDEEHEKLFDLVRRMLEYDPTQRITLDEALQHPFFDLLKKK
Chain of UniProt P49674 (whole entry, looked up): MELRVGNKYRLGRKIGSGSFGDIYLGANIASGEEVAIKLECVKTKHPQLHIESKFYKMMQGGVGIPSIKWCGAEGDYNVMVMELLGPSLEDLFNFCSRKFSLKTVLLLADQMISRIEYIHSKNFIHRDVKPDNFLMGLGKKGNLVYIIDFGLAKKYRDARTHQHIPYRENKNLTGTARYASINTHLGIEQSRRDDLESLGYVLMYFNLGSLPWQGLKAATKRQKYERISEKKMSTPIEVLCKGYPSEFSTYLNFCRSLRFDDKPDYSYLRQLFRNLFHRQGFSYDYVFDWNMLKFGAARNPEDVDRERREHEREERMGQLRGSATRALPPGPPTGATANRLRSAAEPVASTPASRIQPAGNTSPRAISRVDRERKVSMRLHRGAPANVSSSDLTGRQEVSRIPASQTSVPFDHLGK
Chain of UniProt Q5VT25 (whole entry, looked up): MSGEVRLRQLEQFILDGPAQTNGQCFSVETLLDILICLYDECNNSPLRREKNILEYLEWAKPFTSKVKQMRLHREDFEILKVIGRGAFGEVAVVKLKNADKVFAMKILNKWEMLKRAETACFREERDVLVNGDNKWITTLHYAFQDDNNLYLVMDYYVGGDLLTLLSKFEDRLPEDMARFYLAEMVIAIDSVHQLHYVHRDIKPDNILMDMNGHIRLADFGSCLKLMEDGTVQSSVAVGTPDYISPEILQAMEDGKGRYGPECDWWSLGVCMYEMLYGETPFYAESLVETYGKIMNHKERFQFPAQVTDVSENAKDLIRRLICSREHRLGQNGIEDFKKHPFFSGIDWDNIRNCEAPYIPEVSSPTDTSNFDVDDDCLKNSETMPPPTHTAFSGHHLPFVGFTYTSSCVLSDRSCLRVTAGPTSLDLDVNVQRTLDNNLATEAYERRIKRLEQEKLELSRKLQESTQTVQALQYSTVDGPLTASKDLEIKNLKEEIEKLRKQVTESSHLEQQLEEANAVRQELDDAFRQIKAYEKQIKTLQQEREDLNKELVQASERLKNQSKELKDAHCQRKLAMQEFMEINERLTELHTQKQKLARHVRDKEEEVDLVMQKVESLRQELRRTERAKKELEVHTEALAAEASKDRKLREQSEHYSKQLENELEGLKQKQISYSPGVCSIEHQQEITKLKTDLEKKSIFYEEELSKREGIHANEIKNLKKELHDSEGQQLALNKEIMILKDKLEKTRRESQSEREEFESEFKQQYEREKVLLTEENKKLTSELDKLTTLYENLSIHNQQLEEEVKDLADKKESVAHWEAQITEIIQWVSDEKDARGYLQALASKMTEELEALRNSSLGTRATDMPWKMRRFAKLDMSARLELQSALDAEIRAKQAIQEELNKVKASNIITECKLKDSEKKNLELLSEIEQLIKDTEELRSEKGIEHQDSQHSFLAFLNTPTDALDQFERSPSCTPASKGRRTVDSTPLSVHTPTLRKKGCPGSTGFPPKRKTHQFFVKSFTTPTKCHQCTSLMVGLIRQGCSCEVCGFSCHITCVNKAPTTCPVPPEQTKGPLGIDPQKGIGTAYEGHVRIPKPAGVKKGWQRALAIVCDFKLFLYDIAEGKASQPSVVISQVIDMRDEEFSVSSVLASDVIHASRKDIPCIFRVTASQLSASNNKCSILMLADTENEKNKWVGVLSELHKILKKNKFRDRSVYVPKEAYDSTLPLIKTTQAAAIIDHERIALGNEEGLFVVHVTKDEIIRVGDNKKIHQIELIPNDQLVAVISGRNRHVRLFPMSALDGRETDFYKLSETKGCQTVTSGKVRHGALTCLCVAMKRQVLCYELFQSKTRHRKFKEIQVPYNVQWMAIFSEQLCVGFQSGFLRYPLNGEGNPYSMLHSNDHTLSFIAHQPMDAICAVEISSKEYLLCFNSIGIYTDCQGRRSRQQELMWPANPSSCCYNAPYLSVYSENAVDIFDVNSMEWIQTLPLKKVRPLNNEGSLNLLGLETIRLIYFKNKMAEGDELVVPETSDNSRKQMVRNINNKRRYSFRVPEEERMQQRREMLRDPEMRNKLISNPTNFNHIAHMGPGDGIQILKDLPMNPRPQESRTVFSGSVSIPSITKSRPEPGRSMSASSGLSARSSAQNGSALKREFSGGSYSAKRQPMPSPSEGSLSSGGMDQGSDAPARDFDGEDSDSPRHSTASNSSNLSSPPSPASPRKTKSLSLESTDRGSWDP
Chain of UniProt O15264 (whole entry, looked up): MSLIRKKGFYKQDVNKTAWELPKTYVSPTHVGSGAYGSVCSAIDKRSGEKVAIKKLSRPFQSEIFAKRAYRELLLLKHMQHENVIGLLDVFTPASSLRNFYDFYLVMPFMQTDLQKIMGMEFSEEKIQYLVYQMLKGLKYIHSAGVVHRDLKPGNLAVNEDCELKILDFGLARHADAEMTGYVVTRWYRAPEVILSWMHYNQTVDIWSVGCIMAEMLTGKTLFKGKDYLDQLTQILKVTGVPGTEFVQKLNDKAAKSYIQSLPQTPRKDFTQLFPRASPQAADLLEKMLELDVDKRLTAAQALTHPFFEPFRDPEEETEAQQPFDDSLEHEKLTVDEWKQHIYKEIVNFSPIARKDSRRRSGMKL

Block 1
Cell line: mouse MPNST tumor cells
Method: high-content immunofluorescence imaging
Item: nuclear SOX9
Tested at: 10 µM
Time: 12 h
Notes: mean of 2 replicates
Reference: DMSO control
Reading: higher = more nuclear SOX9
Quantity: nuclear SOX9 intensity
O=C(CCNNC(=O)c1ccncc1)NCc1ccccc1: 91.9 % of DMSO
CC1c2cccc(O)c2C(O)=C2C(=O)C3(O)C(O)=C(C(N)=O)C(=O)C(N(C)C)C3C(O)C21 (stereo not shown): 93.6 % of DMSO
C=CCc1cccc(/C=N/NC(=O)CN2CCN(Cc3ccccc3)CC2)c1O: 138 % of DMSO
CC1(C)O[C@@H]2C[C@H]3[C@@H]4C[C@H](F)C5=CC(=O)CC[C@]5(C)[C@H]4[C@@H](O)C[C@]3(C)[C@]2(C(=O)CO)O1: 66.4 % of DMSO
C=C(CC(=O)OCCCCCCCC)C(=O)O: 94.5 % of DMSO
O=C(O)Cc1cccc(OCCCN(Cc2cccc(C(F)(F)F)c2Cl)CC(c2ccccc2)c2ccccc2)c1: 101 % of DMSO
CCOc1ccc(NC(=S)N2CCC(C(O)(c3ccccc3)c3ccccc3)CC2)cc1: 106 % of DMSO
Cc1ccccc1C(OCCN(C)C)c1ccccc1 (stereo not shown): 138 % of DMSO
Clc1ccc(Cn2c(CN3CCCC3)nc3ccccc32)cc1: 124 % of DMSO and 122 % of DMSO
CCCn1c(=O)[nH]c2nc(-c3ccc(S(=O)(=O)N4CCN(Cc5ccc(Cl)cc5)CC4)cc3)[nH]c2c1=O: 139 % of DMSO
Cc1cccc(-c2[nH]c(C(C)(C)C)nc2-c2ccc3c(c2)OCO3)n1: 96.7 % of DMSO
CCOc1ccc(Oc2ccc(OCc3cc(F)ccc3F)cc2)c(N)c1: 91.5 % of DMSO
O=C(CCCN1CCC(O)(c2ccc(Br)cc2)CC1)c1ccc(F)cc1: 237 % of DMSO
COc1ccc(C(=O)C2CC2c2ccc(Cl)cc2)cc1 (stereo not shown): 106 % of DMSO

Block 2
Compound: CCC(=O)N[C@H]1CC[C@@H](C(=O)N(C)c2ccc(-c3nc4ccccc4o3)cc2)C1
Observed: cell-free assay
Method: competition with immobilised ligand
Tested at: 1 µM
Quantity: remaining binding
Phosphatidylinositol 4-phosphate 5-kinase type-1 alpha (PIP5K1A, Homo sapiens, UniProt Q99755): 100%
Hepatocyte growth factor receptor (MET, Homo sapiens, UniProt P08581, Y1235D): 100%
Serine/threonine-protein kinase Sgk1 (SGK1, Homo sapiens, UniProt O00141): 100%
Serine/threonine-protein kinase LATS1 (LATS1, Homo sapiens, UniProt O95835): 48%
Serine/threonine-protein kinase SIK2 (SIK2, Homo sapiens, UniProt Q9H0K1): 78%
Tyrosine-protein kinase ABL1, non-phosphorylated (ABL1, Homo sapiens, UniProt P00519): 85%
Macrophage colony-stimulating factor 1 receptor (CSF1R, Homo sapiens, UniProt P07333): 93%
Receptor tyrosine-protein kinase erbB-4 (ERBB4, Homo sapiens, UniProt Q15303): 100%
Inhibitor of nuclear factor kappa-B kinase subunit beta (IKBKB, Homo sapiens, UniProt O14920): 90%
Serine/threonine-protein kinase 38 (STK38, Homo sapiens, UniProt Q15208): 77%
Interleukin-1 receptor-associated kinase 3 (IRAK3, Homo sapiens, UniProt Q9Y616): 85%
Mitogen-activated protein kinase 7 (MAPK7, Homo sapiens, UniProt Q13164): 78%
Serine/threonine-protein kinase MRCK alpha (CDC42BPA, Homo sapiens, UniProt Q5VT25): 87%
Epidermal growth factor receptor (EGFR, Homo sapiens, UniProt P00533, del747-750/T751S): 100%
Dual specificity protein kinase CLK4 (CLK4, Homo sapiens, UniProt Q9HAZ1): 94%
Phosphatidylinositol 4-phosphate 5-kinase type-1 gamma (PIP5K1C, Homo sapiens, UniProt O60331): 100%
Casein kinase I isoform epsilon (CSNK1E, Homo sapiens, UniProt P49674): 93%
Epidermal growth factor receptor (EGFR, Homo sapiens, UniProt P00533, L858R/T790M): 100%
Serine/threonine-protein kinase RIO1 (RIOK1, Homo sapiens, UniProt Q9BRS2): 99%
Serine/threonine-protein kinase TAO2 (TAOK2, Homo sapiens, UniProt Q9UL54): 76%
MAP kinase-interacting serine/threonine-protein kinase 1 (MKNK1, Homo sapiens, UniProt Q9BUB5): 80%
Mitogen-activated protein kinase 14 (MAPK14, Homo sapiens, UniProt Q16539): 100%
Mitogen-activated protein kinase 13 (MAPK13, Homo sapiens, UniProt O15264): 85%
Tyrosine-protein kinase ZAP-70 (ZAP70, Homo sapiens, UniProt P43403): 82%
Receptor-type tyrosine-protein kinase FLT3 (FLT3, Homo sapiens, UniProt P36888, ITD): 91%

Block 3
Host: human
Medium: microsomes or S9
Tested at: 2 µM
Time: 0.5 h
Quantity: remaining compound
Clc1cccc(C2CC(c3cccs3)Nc3ncnn32)c1Cl (stereo not shown): 12.5%
COc1cc(=O)[nH]cc1C(=O)N1CCC(=O)N2CCCC21 (stereo not shown): 98.7%
CCCC1(CCC)c2cc(NC(=O)[C@@H]3CCCN3C(=O)OC(C)(C)C)ccc2-c2ccc(NC(=O)[C@@H]3CCCN3C(=O)OC(C)(C)C)cc21: 6.84%
Cc1nc2c(c3c(n2CC2CCO2)CCCC3)c(-c2ccc(Cl)cc2)c1[C@H](OC(C)(C)C)C(=O)O (stereo partly shown): 83.7%
Cc1cccc(NC2=CC(c3cccs3)N(c3cccc(C)c3)C2=O)c1 (stereo not shown): 72.7%
CCOc1cc(/C=N/n2cnnc2)cc(Cl)c1OCCOc1cc(C)ccc1C(C)C: 51.5%
Cc1cc(C)cc(-n2ncc3c(=O)n(CC(=O)c4cc(C)[nH]c4C)cnc32)c1: > 100%
O=C(Nc1nn[nH]n1)c1cc(-c2cccs2)[nH]n1: > 100%
c1nc(N2CCCC2)sc1CN1CC[C@H]2OCc3cnnn3[C@H]2C1: 99.1%
CN(C)c1ccc2c(c1)[C@H](CC(=O)c1ccccc1)C(C(=O)OCc1ccccc1)(C(=O)OCc1ccccc1)C[C@H]2c1ccccc1: 38.7%

Block 4
Target: Fibroblast growth factor receptor 2 (FGFR2, Homo sapiens, UniProt P21802)
Chain of UniProt P21802 (whole entry, looked up): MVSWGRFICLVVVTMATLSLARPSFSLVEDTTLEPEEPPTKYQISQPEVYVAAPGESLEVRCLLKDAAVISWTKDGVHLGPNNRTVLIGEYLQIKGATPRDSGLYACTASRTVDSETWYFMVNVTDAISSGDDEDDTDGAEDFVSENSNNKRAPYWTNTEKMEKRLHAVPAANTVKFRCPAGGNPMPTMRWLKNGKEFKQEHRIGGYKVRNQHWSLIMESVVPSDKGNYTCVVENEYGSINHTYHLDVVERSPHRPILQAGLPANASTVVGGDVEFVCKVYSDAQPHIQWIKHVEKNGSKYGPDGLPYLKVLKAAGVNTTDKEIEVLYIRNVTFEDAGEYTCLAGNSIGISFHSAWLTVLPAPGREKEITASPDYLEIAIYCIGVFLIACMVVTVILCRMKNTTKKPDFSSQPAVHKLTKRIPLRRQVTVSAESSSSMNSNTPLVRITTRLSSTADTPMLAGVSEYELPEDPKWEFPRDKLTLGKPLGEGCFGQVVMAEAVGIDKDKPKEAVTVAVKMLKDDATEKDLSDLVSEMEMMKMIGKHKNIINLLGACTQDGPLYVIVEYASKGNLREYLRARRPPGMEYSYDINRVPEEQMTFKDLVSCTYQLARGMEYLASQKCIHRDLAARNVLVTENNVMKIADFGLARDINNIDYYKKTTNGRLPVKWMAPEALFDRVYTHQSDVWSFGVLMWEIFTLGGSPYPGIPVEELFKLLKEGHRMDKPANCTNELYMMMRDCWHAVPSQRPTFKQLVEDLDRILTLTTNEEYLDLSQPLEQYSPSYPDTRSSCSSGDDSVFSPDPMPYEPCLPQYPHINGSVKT
Observed: enzyme activity
Mode: inhibitor
Tested at: 0.5 µM
Reference: control
Quantity: remaining activity
CCN(CC)CCNC(=O)c1c(C)[nH]c(/C=C2\C(=O)Nc3ccc(F)cc32)c1C: 50.5%
N#Cc1c(NC(=O)c2cccc3ccccc23)sc2c1CCCC2: 110%
C[C@@H]1CCN(C(=O)CC#N)C[C@@H]1N(C)c1ncnc2[nH]ccc12: 91.7%
O=c1cc(-c2cccc3c2Sc2ccccc2S3)oc(N2CCOCC2)c1: 98.7%
c1ccc(-c2[nH]ncc2-c2ccnc3ccccc23)nc1: 110%
COc1cc2c(cc1OC)-c1[nH]nc(Nc3cccc(F)c3)c1C2: 100%
N#C/C(=C\c1ccc(O)c(O)c1)C(=O)NCc1ccccc1: 98.1%
O=C1c2ccccc2-c2n[nH]c3cccc1c23: 92.3%
CCOc1nc(NC(=O)Cc2cc(OC)ccc2OC)cc(N)c1C#N: 110%
CN(C)C[C@H]1CCn2c(c(C3=C(c4cn(C)c5ccccc45)C(=O)NC3=O)c3ccccc32)C1: 104%
O=C1C(Cl)=C(N2C(=O)CCC2=O)C(=O)c2ccccc21: 102%
O=C(NC(NC(=S)Nc1ccc(F)c([N+](=O)[O-])c1)C(Cl)(Cl)Cl)C(c1ccccc1)c1ccccc1 (stereo not shown): 97.7%
c1ccc(-c2cnc(Nc3ccc(OCCN4CCCC4)cc3)s2)cc1: 92.7%
Ic1cccc(CSc2nnc(-c3ccncc3)o2)c1: 101%
CN([C@@H](Cc1ccc(OS(=O)(=O)c2cccc3cnccc23)cc1)C(=O)N1CCN(c2ccccc2)CC1)S(=O)(=O)c1cccc2cnccc12: 98.1%
Cc1cn(-c2cc(NC(=O)c3ccc(C)c(Nc4nccc(-c5cccnc5)n4)c3)cc(C(F)(F)F)c2)cn1: 96.5%
COc1cc2ncnc(Nc3ccc(O)c(Br)c3)c2cc1OC: 95.9%
Cn1nc2c3c(cccc31)C(=O)c1ccccc1-2: 105%
CCN(CC)CCNC(=O)c1c(C)[nH]c(/C=C2\C(=O)Nc3ccc(Cl)cc32)c1C: 29.3%
COc1cc2ncnc(Nc3cccc(Cl)c3)c2cc1OC: 97.5%
Nc1cccc(-c2cc3c(Oc4cccc(O)c4)ncnc3[nH]2)c1: 46.1%
CCN(CC)C(=O)c1ccc(Nc2nc(OCC3CCCCC3)c3[nH]cnc3n2)cc1: 76.6%
Cc1cc2ncc(-c3ccccc3)nc2cc1C: 108%
Cc1nc2cc3nc(-c4cccs4)cnc3cc2n1C: 91.8%

For quick reference, copied from above (block 2):
Phosphatidylinositol 4-phosphate 5-kinase type-1 alpha (PIP5K1A, Homo sapiens, UniProt Q99755): 100%
Hepatocyte growth factor receptor (MET, Homo sapiens, UniProt P08581, Y1235D): 100%
Serine/threonine-protein kinase Sgk1 (SGK1, Homo sapiens, UniProt O00141): 100%
Serine/threonine-protein kinase LATS1 (LATS1, Homo sapiens, UniProt O95835): 48%
Serine/threonine-protein kinase SIK2 (SIK2, Homo sapiens, UniProt Q9H0K1): 78%
Tyrosine-protein kinase ABL1, non-phosphorylated (ABL1, Homo sapiens, UniProt P00519): 85%
